Published values of several laboratories.
Every numbered part comes from another study and shows a few of its results, in no order.

Sample 1 — technique: RNA Bind-n-Seq; form: RNA; medium: in vitro; tested at: 365 nM; relative to: no-protein control; reading: higher = stronger binding
Target: RNA binding protein fox-1 homolog 2, RRM domain, GST-SBP tag (RBFOX2, Homo sapiens, UniProt O43251-10, residues 100-194)
Setting: natural RNA segment, single round, ends assumed
Shared flanks, not repeated: GGGAGUUCUACAGUCCGACGAUC … UGGAAUUCUCGGGUGCCAA
Target sequence (chain): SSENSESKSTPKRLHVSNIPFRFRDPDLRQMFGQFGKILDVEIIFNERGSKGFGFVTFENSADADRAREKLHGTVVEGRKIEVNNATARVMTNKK
Strand | RBNS enrichment (R)
AUUAUUUCUCACAACUAGUUCUCUACGAGAGAUUUUGUUUCUACAAUGUAGUCAGCACUUAAUGGAGAGUAUGGAGUAGUGCAUUUUGCAGGGAUUUUUAUUCCGUCUUU | 0.464
UUAUCUGGAGCCCACAUAGUGUGGAACAAAAAGUCACCUAGAAAGCAUCCUUGGUCAUCAUUGUCUCCUUCCCACCUGGCCCAGAGAUGCUUAAAUCCAAGUUGUUUCUC | 0.255
GCUUUCUUUAUCAACCUGCUCACUCACAAAUGUGUGCCCUCAGCCAGAGAGUAAGAAAGCCCAAAUCUGUUACAGCUUCUAAAAAAAUAGAUUUCUAAUUUGUCCUACUC | 0.364
ACCAUUUGACACACUAUAGAUUCCAAACAUAACGUUGCACCAAAUAGAAAUGUAUAUUUUAUUAUGCAAUGCCUUAGUCAUAAACUGGGCUCAAACAAUUCUCAGCCUAA | 0.187
UUUUUUUUUUUUAAUUUGGUCAUGGGGACCAAGGAGAAGGCAUGAAUCCCUGUAUUUGGCUCUUGCAGCCUCAGGCACUGUGCCUACUCUCCAGGUCAUGUCCCUGUGGU | 1.41
UUUGAUGCCUUUUAAAUACCUUGAUGCCUAUAGCAUUAGAAAUGCUUUCCUAUUUAAAACAGGUUAGAUUUUAAAAUAGAGCUUUGUAUUGUGUAAUGGUUUUAUAUAUU | 2.04
AAUCUAAAGGAACAAGUGUGUCGUGUGUCAAGCUGAUGAGGACUGUCAGACUGUGGCUUAGCUCAGUGUGACCCAGACCUUGUGACCUGUAGCUGCCGAACCAGUAGCUC | 0.505
GCCCUCUCGCCAGGCUGGAGUGUAGUGGCACAAUCUCAGCUCACUGCAACCUCCGCAUCCCGGGUUCAAGAGAUUCUGCCUCAGCCUCCAGAGUAGCUGGGACUACAAAC | 0.718
AGCCCCACAGCCUGAGCCUCCCAGCUGCCAUGUGCCUGUUGCACACCUGCACACACGCCCUGGCACACAUACACACAUGCGUGCAGGCUUGUGCAGACACUCAGGGAUGG | 0.578
UUAAAUUUCAUUGUUUAAUGAAAGGGCAAGUCAAAUGCUUGCCCCAAAUUUAAUACAUGUGAUUUGUGAUAUGUAGCUAAACUUAAUCCAGCUAAUGAAUAUUCUUCAUC | 0.307
AUCUCCCAUCUGCUCACAGUAGCACCUCAGACUCCUAUGUCCCAAUGGCAGCAACAAUUUUGCCAUUUCUAUUGACUUUCACAUAGGCGCCCCCAAACACACACAACAAC | 1.55
CCCUUCAAUUCCUCAAGUCUGGGUGGUGACAAGGUAGGGGCUAGGUACUGGACUACCACAGGUUUUUAGGAACUAAGGUGUUUCUCAUAAACACAAAAUGUUGGGUGAAA | 0.739

Sample 2 — technique: universal PBM; form: double-stranded DNA, one strand shown; medium: in vitro; tested at: not given; reading: higher = stronger binding
Target: Sal-like protein 4, full length isoform B (SALL4, Homo sapiens, UniProt Q9UJQ4-2, residues 1-616)
Setting: 8-mer, flanks averaged, mean of replicates
Strand | E-score
CGCAAGAA | -0.165
CTCACTGC | -0.115
ACCACGCT | -0.135
CAAATCTG | 0.0332
CCGAGGGC | -0.317
CAATAAGG | 0.115
CACTTCAG | -0.00743
TGAGATCA | -0.06
ACTAACCG | -0.0597
ATGCTGCA | -0.0318
ACCTAGCT | -0.14
ACCTCCTC | -0.118
CAAAGATA | 0.208
AAACATCA | 0.215
TCGTTAAA | 0.141
AATTGACA | 0.143

Sample 3 — technique: RNA Bind-n-Seq; form: RNA; medium: in vitro; tested at: not given; relative to: input RNA pool; reading: higher = stronger binding
Target: RING finger protein unkempt homolog, zinc fingers 1-6, GST-SBP tag (UNK, Homo sapiens, UniProt Q9C0B0, residues 30-357)
Setting: RNA with constant flanks, human and mouse sites, ends assumed
Shared flanks, not repeated: GGGAGUUCUACAGUCCGACGAUC … CAACAGAGGAUUGAGCAUCA
Residues (chain): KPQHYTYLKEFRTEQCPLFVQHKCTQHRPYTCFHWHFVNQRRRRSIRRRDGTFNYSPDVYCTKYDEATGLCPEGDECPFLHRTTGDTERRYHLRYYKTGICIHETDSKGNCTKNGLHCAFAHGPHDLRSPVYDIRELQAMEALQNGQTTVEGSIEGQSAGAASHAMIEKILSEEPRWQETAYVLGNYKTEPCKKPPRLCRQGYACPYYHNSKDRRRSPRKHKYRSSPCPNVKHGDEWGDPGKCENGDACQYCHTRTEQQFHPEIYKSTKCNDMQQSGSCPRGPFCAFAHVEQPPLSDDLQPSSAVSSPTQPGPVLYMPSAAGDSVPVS
Strand | bound/input enrichment
CCUGCGAUUGUUCAUAUAAACCACCAGCCAUACUUGGAAAGAGGAGAUGGUCCAAUUUGUCUAGUGCUGGCUCCUACCAGAGAGCUUGCGCAGCAGGUGCAGCAGGUGGCUGACGAUUAU | 0.163 ratio
CCAAAGGAGGUGUGCAUUAAAACAUUUGAUGAUCAUAACACCAGUAUAAUCAGAUUUGUGGGGAGUGGGAUCAAGGCACUUAAUCCCCCGAUGAUUUCAGUGUGCGCUCAACAGUGUCUA | 0.253 ratio
CGAGACAAAGCAUCUAGAAAUAUGAGAGGGUCACGGAUGAAUGGACUUCCAAGUCCCACUCAUAGUGCCCACUGUAGCUUCUACAGAACCAGAACCUUGCAGGCAUUAAGUAAUGAGAAG | 0.141 ratio
GCAAAACCACCCAAAGGAGCACAUGUGGAAGUUUAAACUACAAAGUUAUUUCUUCAUCUUGACCUGUUUUUUUAAAUGUAAACUUUUAAGGACUUGAGAUAACUAAUUUGUUUAUAUACA | 0.208 ratio
UCCACACAGAAAAGGGCUAACUAUACAGCAGAGCAGGAAUCUCUGAAUAUCCCACUAAACGUUCUCUUCCUAUUUGUCAGUUGUAUUUUUCCUUAGGAUAAAGGUUUUAUCCACUAUAUU | 0.211 ratio
GUGGGGCUGCUGGUGGGGGGCCUGAUCAAGGGUGUAGGCGAGACACCCCCCUUCCUGCAGUCCGACGUCUUCUUCCUCUUCCUGCUGCCGCCCAUCAUCCUGGAUGCGGGCUACUUCCUG | 0.209 ratio
AAAGUGGACGAACGAGUGCGACAGCUCACCGAGGUGCUUGUGUUUGAGCUCUCCCCGGAUCGCUCUCUGAGAGGCGGCCCCAAGGCUACUCGGAGAGCCGUGUCUCAGCUGAUCCGGCUG | 0.0568 ratio
AUCCAGGCCCUUCGCUGGGUGAGUGAGAAUAUUGCCUUCUUUGGAGGAGAUCCCCGUAGAAUUACUGUCUUUGGCUCUGGCAUCGGUGCAUCCUGUGUCAGUCUCCUUACACUGUCUCAU | 0.211 ratio
CUACUGAGUAAGGGGCAUUCCUGUUACAGACCAAGGAGAACUGGAGAAAGAAAGAGAAAAUCAGUUCGUGGUUGCAUUGUGGAUGCAAAUCUGAGCGUUCUCAACUUGGUUAUUGUAAAA | 0.186 ratio
CUCAAACAGGAAGCCAACACCGAGCCGCGGAAACGGUUUCACUUGCUGUCUCGCCUUCGAAAAGCCGUGAAGCAUGCAGAGGAACUGGAGCGCUUGUGUGAGAGCAACCGGGUGGAUGCC | 0.105 ratio
CCCGCCCGCCCGCCUCCCUGCCGGCCCAUCCACACCCUGCGUCCACACCACUUCCAACCUCAUAGGAGCCGAUGUAUUUAUUUUCCUUGAGUUUUUAUUUAUGCUGUAACCUGUAUCAAG | 0.266 ratio

Sample 4 — technique: RNA Bind-n-Seq; form: RNA; medium: in vitro; tested at: 1 µM; setting: whole 134-nt RNA, ends assumed; with: 150 mM KCl; relative to: input library; reading: higher = stronger binding
Target: Ras GTPase-activating protein-binding protein 1, C-terminal RGG region (G3BP1, Homo sapiens, UniProt Q13283)
Sequence of UniProt Q13283 (whole entry, looked up): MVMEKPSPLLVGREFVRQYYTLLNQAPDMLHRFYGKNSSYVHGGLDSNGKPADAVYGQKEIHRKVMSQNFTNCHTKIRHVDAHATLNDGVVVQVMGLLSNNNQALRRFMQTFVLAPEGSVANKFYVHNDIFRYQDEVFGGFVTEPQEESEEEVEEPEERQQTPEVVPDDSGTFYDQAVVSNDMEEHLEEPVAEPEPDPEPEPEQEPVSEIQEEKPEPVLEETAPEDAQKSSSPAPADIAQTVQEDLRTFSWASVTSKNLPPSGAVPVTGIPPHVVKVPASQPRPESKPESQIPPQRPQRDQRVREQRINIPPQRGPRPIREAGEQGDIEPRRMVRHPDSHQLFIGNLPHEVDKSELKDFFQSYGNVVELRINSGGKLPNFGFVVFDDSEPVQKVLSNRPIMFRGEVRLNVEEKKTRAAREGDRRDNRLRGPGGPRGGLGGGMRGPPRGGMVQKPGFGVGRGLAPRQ
Shared flanks, not repeated: GGGAGUUCUACAGUCCGACGAUC … UGGAAUUCUCGGGUGUCAAGG
Strand | log2 enrichment
UAGAGACUUCAGAUGGAUUUUAAAAUUGAACACACUUGGGAUGGUUUUCCAGUGAAGCAUGAGCCCGUAUUUAUCAGGCUGAAUCCAGGU | -1.8
CGGUCAGACUUUGUGUUACAUAAAUUAACACUGUUCUCAGGUAAUGAGAGAUCCAAACACCAAGCGCUCCAGGGGCUUUGGGUUUGUCAC | -0.964
UAACUUUAGAGGAGGAUCUGAUGAAUAUGGCAGUGGACGUGGAUUUGGGGAUGGCUAUAAUGGGUAUGGAGGAGGACCUGGAGGUGGCAA | -1.24
GCAGGAAGUAAAAACAAAUGGAAAUGCUUCGGAUAGUGGCAGGGGUGGGGGUUGCUAAGGAAAGGGUGGGAUGUGAGUGGGUAAAGAGUU | 2
CCUGUGCUACACAUCGUAUGUACCGAAUCGGUUUUUUGGGGUUUUUUGGGGUUUUUUGGGAAAGUAUUAUGUUACGCCGUUCGGAUCUGC | -1.41
CCUCAAGUCCUGUGCUACACAUCGUAUGUACCGAAUCGGGAGGGGAGGGAGGGAAAGUAUUAUGUUACGCCGUUCGGAUCUGCACUUCCA | 2.58
CAAGUCCUGUGCUACACAUCGUAUGUACCGAAUCGGAAAAAGGAAAGGUUUUUGGAAAGUAUUAUGUUACGCCGUUCGGAUCUGCACUUC | -2.05
CACAGACAACACGCACCCACACAGACACAGAGGGAAGGCGUUGGGAUGGGGACAGGGUGCACAGCAGGGCGGGGUAGGACCCCAGCCCCU | -0.791
UAACUUUAGAGGAGGAUCUGAUGGAUAUGGCAGUGGACGUGGAUUUGGGGAUGGCUAUAAUGGGUAUGGAGGCGGACCUGGAGGUGGCAA | -1.08
UGGGAGGUGGAUUUUGUUUAUUUUUUUAGCUCAUUUCCAGGGGUGGGAAUUUUUUUUUAAUAUGUGUCAUGAAUAAAAUUGUUUUUGAAA | 2.06
UCCUGUGCUACACAUCGUAUGUACCGAAUCGGGGCCCCCGGGGCCCCCGGGCCCCCGGGGAAAGUAUUAUGUUACGCCGUUCGGAUCUGC | -1.83
AGGGAGGUGGAUUUUGUUUAUUUUUUUAGCUCAUUUCCAGGGGUGGGAAUUUUUUUUUAAUAUGUGUCAUGAAUAAAGUUGUUUUUGAAA | 3.48
UGCUUCAGACCAAGCGGAGCUCCCGGAGGCAAAGCCUGGAGCUGCAGAAGUGUGAAGAGAUCCUCCACAAGAUCGUGAAGUACCGCUUCA | -2.95
AAGUCCUGUGCUACACAUCGUAUGUACCGAAUCGGUUUUUUUGGUUUUUUUGGAGGAAAGUAUUAUGUUACGCCGUUCGGAUCUGCACUU | -1.88

Sample 5 — technique: protein binding microarray; form: double-stranded DNA, one strand shown; medium: in vitro; tested at: not given; relative to: not given; reading: higher = stronger binding
Target: Histone acetyltransferase KAT6A, winged helix 1, GST fusion (KAT6A, Homo sapiens, UniProt Q92794, residues 1-85)
Setting: 8-mer, flanks averaged, mean of 2 arrays, mostly near background
Target sequence (chain): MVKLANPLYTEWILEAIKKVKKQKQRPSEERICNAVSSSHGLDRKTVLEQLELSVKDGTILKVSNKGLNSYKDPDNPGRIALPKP
Strand | E-score
GGAAATAC | -0.066
CCACACTC | -0.00275
CGCAACAC | 0.278
TATTGCAA | -0.0464
CACTTGAG | -0.256
CGCGATGC | 0.295
CACGAGAG | -0.0623
GAGGAACA | -0.0971
AGGTTCCA | -0.153
CCACTAAG | -0.151
ATTCCTCG | -0.11
ATTATCTC | -0.0672
CTTGCACA | -0.184
AAGGCCAT | -0.0376
ACCACACA | -0.341
GTACCTAC | -0.12
GTCTAAAC | -0.0653
CCAAACGC | -0.0487
CTCATAAG | -0.164
TATTCTCA | -0.205
AAAGCGTC | 0.125
AGAGGGGG | -0.208
AATGGGTC | -0.134
ACACTAGA | -0.0748
CCCTAGCA | -0.21

A few entries again (sample 2):
Strand | E-score
CAAATCTG | 0.0332
AAACATCA | 0.215
CTCACTGC | -0.115
CAATAAGG | 0.115
TCGTTAAA | 0.141
TGAGATCA | -0.06
ACCTAGCT | -0.14
AATTGACA | 0.143
